Measured values of several laboratories.
Protocols differ between the studies behind these lines.

SMILES | assay | test system | conditions | how to read | measurement | value
CC[C@H](C)[C@H](NC(=O)[C@H](Cc1ccc(O)cc1)NC(=O)[C@@H]1CCCN1C(=O)[C@H](CCCNC(=N)N)NC(=O)[C@@H](N)CCCNC(=N)NC(=O)NCCCCNC(=O)CCCCCN1/C(=C/C=C/C=C/C2=[N+](CCCCS(=O)(=O)[O-])c3ccccc3C2(C)C)C(C)(C)c2cc(S(=O)(=O)O)ccc21)C(=O)N[C@@H](CC(C)C)C(=O)O | stable, RP-HPLC | PBS | up to 48 h, pH 7.4, 22 °C | – | stability | stable
CN1[C@H]2CC[C@@H]1[C@@H](C(=O)O)[C@@H](OC(=O)c1ccccc1)C2 | – | rat whole blood | 500 nM, 4 months, -80 °C | – | stability bias | 9.3%
O=C(O)CCC(CP(=O)(O)O)C(=O)O (stereo not shown) | – | rat plasma | 4 h, room temperature | – | stability | stable
CC(=O)Oc1ccc2c3c1O[C@H]1[C@@H](OC(C)=O)C=C[C@H]4[C@@H](C2)N(C)CC[C@@]341 | – | rat whole blood | 500 nM, 4 freeze-thaw cycles | – | stability bias | -7.75%
CC[C@H](C)[C@H](NC(=O)[C@H](Cc1ccc(O)cc1)NC(=O)[C@@H]1CCCN1C(=O)[C@H](CCCNC(=N)N)NC(=O)[C@@H](N)CCCNC(=N)NC(=O)NCCOCCOCCNC(=O)CCCCCN1/C(=C/C=C/C=C/C2=[N+](CCCCS(=O)(=O)[O-])c3ccccc3C2(C)C)C(C)(C)c2ccccc21)C(=O)N[C@@H](CC(C)C)C(=O)O | stable, RP-HPLC | PBS | up to 48 h, pH 7.4, 22 °C | – | stability | stable
COC(=O)[C@@H]1[C@H]2CC[C@@H](C[C@@H]1O)N2C | – | rat whole blood | 500 nM, 4 freeze-thaw cycles | – | stability bias | 5.58%
CSCC[C@H](NC(=O)[C@H](CCCCN)NC(=O)[C@H](CCCNC(=N)N)NC(=O)[C@H](CO)NC(=O)[C@H](Cc1c[nH]c2ccccc12)NC(=O)[C@H](CCCNC(=N)N)NC(=O)[C@H](CC(C)C)NC(=O)[C@H](N)CC(C)C)C(=O)N1CCC[C@H]1C(=O)N[C@@H](CS)C(=O)N[C@H](C(=O)N[C@@H](CO)C(=O)O)C(C)C | – | human plasma | – | time remaining stable | stability | > 8 h
Cc1sc2c(c1C)C(c1ccc(Cl)cc1)=N[C@@H](CC(=O)OC(C)(C)C)c1nnc(C)n1-2 | – | 10% HP-β-cyclodextrin with DMSO | 5 mg/mL, 4 °C | – | stability in dosing formulation | 7 days
C#Cc1nc(C(=O)N2CCC(NC(=O)c3cnc(-c4ccccc4)s3)(c3nc4ccccc4n3C)CC2)cs1 | – | phosphate-buffered saline | without DTT | – | stability time | > 4 h
CNc1cc[n+](CC(=O)Nc2ccc3c(c2)ncn3-c2c(C)noc2C)cc1.O=C[O-] | – | glutathione | – | – | stability | stable
